Assay results from different studies.
Compare with care: the assays were run in different laboratories. ± marks the error that the study gave. Converted amounts (≈) assume the structure as drawn. Where no end group is shown, it is not given here.
Chain of UniProt P14416 (whole entry, looked up): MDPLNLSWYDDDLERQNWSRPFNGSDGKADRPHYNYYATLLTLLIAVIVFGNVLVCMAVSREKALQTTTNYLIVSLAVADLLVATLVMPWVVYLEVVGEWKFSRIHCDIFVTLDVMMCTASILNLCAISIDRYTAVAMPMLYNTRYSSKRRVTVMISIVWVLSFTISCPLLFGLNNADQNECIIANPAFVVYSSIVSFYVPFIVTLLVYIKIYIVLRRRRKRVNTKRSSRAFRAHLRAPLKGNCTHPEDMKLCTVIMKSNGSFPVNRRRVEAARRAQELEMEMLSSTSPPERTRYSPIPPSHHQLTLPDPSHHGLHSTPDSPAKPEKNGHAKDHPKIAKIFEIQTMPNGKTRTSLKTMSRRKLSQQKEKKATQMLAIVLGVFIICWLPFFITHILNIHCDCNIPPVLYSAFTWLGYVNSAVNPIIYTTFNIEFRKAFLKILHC

Cc1ccc(N2C(=O)CCC2(CN)c2ccccc2)cc1 (stereo not shown)  EC90 (HIV-1; viral replication; human PBMC, LAI): > 100 µM
C[C@@H]1CC[C@H]2[C@@H](C)C(=O)O[C@@H]3O[C@@]4(C)CC[C@@H]1[C@]32OO4  IC50 (Leishmania tarentolae; viability, resazurin; promastigotes, Schneider's medium; 48 h, 26 °C, added: 6 µM hemin): 1.49 ± 0.94 µM
C=C1C[C@@H]2[C@H](CC[C@]3(C)C(=O)CC[C@@H]23)[C@@]2(C)C=CC(=O)C=C12  median plasma concentration (LC-MS/MS; postmenopausal breast cancer women, plasma; oral, 25 mg/day, 2 h, CYP3A4*22 non-carriers, outlier excluded): 7.7 ng/mL
CCCCCOc1c(OC)cc(NC(C)CCCN)c2nc(C(C)(C)C)cc(C)c12 (stereo not shown)  MBC (Staphylococcus aureus; microbial killing; ATCC33591 MRSA; drug-resistant strain): > 20 µg/mL
COc1cc(C=NNC(=O)CN2c3c(n[nH]c3-c3cccc(Cl)c3)-c3ccccc3S2(=O)=O)cc(OC)c1OC  EC90 (HIV-1; viral replication; PBMC): 13.5 µM
CC[C@H](C)[C@H](N)C(=O)N[C@@H](CC(C)C)C(=O)N1CCC[C@H]1C(=O)N[C@@H](Cc1c[nH]c2ccccc12)C(=O)N[C@@H](CCCCN)C(=O)N[C@@H](Cc1c[nH]c2ccccc12)C(=O)N1CCC[C@H]1C(=O)N[C@@H](Cc1c[nH]c2ccccc12)C(=O)N[C@@H](Cc1c[nH]c2ccccc12)C(=O)N1CCC[C@H]1C(=O)N[C@@H](Cc1c[nH]c2ccccc12)C(=O)N[C@@H](CCCNC(=N)N)C(=O)N[C@@H](CCCNC(=N)N)C(N)=O  MIC range (Staphylococcus aureus; broth microdilution; methicillin-susceptible clinical isolates, Mueller-Hinton broth; 18 h, 35 °C): 1 to 8 µg/mL (≈ 0.525 to 4.2 µM)
meglumine antimoniate  inhibition of infection (Leishmania braziliensis; J774.2 macrophages; IC25, day 10; baseline: untreated): 31%
CC(=NNC(=O)CN1c2c(-c3ccccc3)n[nH]c2-c2ccccc2S1(=O)=O)c1sccc1C  EC90 (HIV-1; viral replication; PBMC): > 100 µM
CC(=O)N[C@H](CCCCNC(=O)C(C)F)C(=O)N[C@@H](CS)C(=O)N[C@@H](CS)C(=O)N[C@@H](CCC(=O)O)C(=O)N[C@@H](Cc1c[nH]cn1)C(=O)N[C@H](Cc1ccccc1)C(=O)N[C@@H](CCCNC(=N)N)C(=O)N[C@@H](Cc1c[nH]c2ccccc12)C(=O)N[C@@H](CS)C(=O)N[C@@H](CCCNC(=N)N)C(=O)N1CCC[C@H]1C(=O)N[C@H](C(N)=O)C(C)C (stereo partly shown) [fluorine-18 labelled]  tissue uptake (C57BL/6 mice, male, B16-F10 tumour, liver; intravenous, 4 h): 0.44 ± 0.11 %ID/g
CCCCCn1c(=O)[nH]c2cc(C(=O)NCCCN3CCCCC3CC)ccc2c1=O (stereo not shown)  maximal response (Hepatitis C virus; HCV infection, Gaussia luciferase reporter; Huh7.5.1 reporter cells; baseline: 10 µM cyclosporin A, DMSO, negative means inhibition): -55.6%
N=C(N)NCCC[C@@H]1NC(=O)[C@H](CCCCNC(=O)[C@H](CC(=O)O)NC(=O)[C@H](CC(=O)O)NC(=O)[C@H](CC(=O)O)NC(=O)CC[C@H](NC(=O)CCOCCOCCOCCOCCNC(=O)c2ccc(NN)nc2)C(=O)N[C@@H](CC(=O)O)C(=O)N[C@@H](CC(=O)O)C(=O)N[C@@H](CC(=O)O)C(=O)NCCCC[C@@H]2NC(=O)[C@@H](Cc3ccccc3)NC(=O)[C@H](CC(=O)O)NC(=O)CNC(=O)[C@H](CCCNC(=N)N)NC2=O)NC(=O)[C@@H](Cc2ccccc2)NC(=O)[C@H](CC(=O)O)NC(=O)CNC1=O [technetium-99m labelled]  tissue uptake (γ-counting; female athymic nude mice, U-87 MG xenograft, eyes; intravenous, 0.5 h): 0.89 ± 0.25 %ID/g
C[C@H]1CNCCc2ccc(Cl)cc21  Tmax (male Sprague-Dawley rat, plasma; subcutaneous, 3 mg/kg, single dose): 0.42 h
YIRF-OH  change in mobility (Schistosoma mansoni; EthoVision motion tracking; peptide, adult worm pairs; 10 µM, 5 min, 37 °C; baseline: pretreatment mobility): 1.5 ± 2.05%
c1ccc(CCN2CCCCC2)cc1  Ki (DRD2 (Homo sapiens, UniProt P14416); binding; CHOp; added: [3H]YM-09151-2 0.21 nM): > 10 µM
O[C@H]1CCCN[C@@H]1CCCn1cnc2c(Cl)c(Cl)ccc21  Tmax at steady state (healthy human volunteers, plasma; oral, 50 mg twice daily, day 14, median): 3 h
CC[C@H](C)[C@H](NC(=O)[C@H](CCCCN)NC(=O)[C@H](CCC(=O)O)NC(=O)[C@H](CCCCN)NC(=O)[C@H](CO)NC(=O)[C@H](CCCCN)NC(=O)[C@H](CCCNC(=N)N)NC(=O)[C@H](Cc1ccccc1)NC(=O)[C@H](Cc1ccccc1)NC(=O)[C@H](CC(=O)O)NC(=O)CNC(=O)[C@H](CC(C)C)NC(=O)[C@@H](N)CC(C)C)C(=O)NCC(=O)N[C@@H](CCCCN)C(=O)N[C@@H](CCC(=O)O)C(=O)N[C@@H](Cc1ccccc1)C(=O)N[C@@H](CCCCN)C(=O)N[C@@H](CCCNC(=N)N)C(=O)N[C@H](C(=O)N[C@H](C(=O)N[C@@H](CCC(N)=O)C(=O)N[C@@H](CCCNC(=N)N)C(=O)N[C@H](C(=O)N[C@@H](CCCCN)C(=O)N[C@@H](CC(=O)O)C(=O)N[C@@H](Cc1ccccc1)C(=O)N[C@@H](CC(C)C)C(=O)N[C@@H](CCCNC(=N)N)C(=O)N[C@@H](CC(N)=O)C(=O)N[C@@H](CC(C)C)C(=O)N[C@H](C(=O)N1CCC[C@H]1C(=O)N[C@@H](CCCNC(=N)N)C(=O)N[C@H](C(=O)N[C@@H](CCC(=O)O)C(=O)N[C@@H](CO)C(=O)O)[C@@H](C)O)C(C)C)[C@@H](C)CC)C(C)C)[C@@H](C)CC  MIC ratio (Staphylococcus aureus; JE2 SAUSA300_0829 lipA transposon mutant; 12.5% TSB; baseline: wild type over mutant): 2 fold
CC(C)c1ccc2c(c1)CC[C@H]1[C@](C)(CN)CCC[C@]21C  IC50 (FF2441; cell growth or viability, MTS; 48 h): 5.98 µM
O=C(Nc1ccc(Cl)cc1)N1CCCC1c1nc(-c2ccccc2)no1 (stereo not shown)  complete motility inhibition concentration (Brugia malayi; adult female and male): 50 to 100 µM
TFFRLFNRSFTGRRRRSVQWCA  biofilm growth (Streptococcus gordonii; OD600; peptide, ATCC 10558, 4 h single-species biofilm; 128 µg/ml, 5 min exposure, OD600 read over 5 h): no effect
TRTRVSRLY  viral yield (rhesus rotavirus; peptide, mouse cholangiocytes; 1 mM, 18 h, 37 °C; baseline: medium control): 66.2%
[123I]c1cncc(OC[C@@H]2CCN2)c1  tissue/plasma ratio (SPECT; human, cerebellum; intravenous bolus plus infusion, 5.2 mCi; baseline: tissue over plasma): 24.9
TDVDHVFLRA-NH2 (C-amide)  inhibition (Drosophila melanogaster; heart rate; wandering third instar larval heart; 40 nL injected, 1 µM, 10 min; baseline: DMS): 77%
CCCCCCOc1c(OC)cc(NC(C)CCCNC(=O)C(N)CCCN)c2nc(C(C)(C)C)ccc12 (stereo not shown)  MBC (Staphylococcus aureus; MRSA ATCC 33591): > 20 µg/mL
CP(=O)(O)CCC(N)C(=O)O (stereo not shown)  herbicidal activity (Setaria faberi; 60 g/ha, 13 days, SETFA, post-emergence spray; baseline: untreated (0%), complete kill (100%)): 100%
CC(=NNC(=O)CN1c2c(-c3ccccc3)n[nH]c2-c2ccccc2S1(=O)=O)c1ccc(C)o1  EC90 (HIV-1; viral replication; PBMC): > 100 µM
COc1ccc(C=NNC(=O)CN2c3c(n[nH]c3-c3cccc(Cl)c3)-c3ccccc3S2(=O)=O)c(OC)c1OC  EC90 (HIV-1; viral replication; PBMC): 23.8 µM
CC(C)(C)C(=O)N(CCCCCCN1C[C@H](O)[C@@H](O)[C@H](O)[C@H]1CO)C1CCCCC1  EC90 (bovine viral diarrhea virus; MDBK; 22 h): 16 ± 12 µM
CCCc1ccc(O)c(OC)c1  LD50 (Spodoptera frugiperda; insecticidal activity; larvae; topical): 2020 mg/kg
N=C(N)NCCC[C@@H]1NC(=O)[C@H](CCCCNC(=O)CNC(=O)CNC(=O)CNC(=O)CC[C@H](NC(=O)CCOCCOCCOCCOCCNC(=O)c2ccc(NN)nc2)C(=O)NCC(=O)NCC(=O)NCC(=O)NCCCC[C@@H]2NC(=O)[C@@H](Cc3ccccc3)NC(=O)[C@H](CC(=O)O)NC(=O)CNC(=O)[C@H](CCCNC(=N)N)NC2=O)NC(=O)[C@@H](Cc2ccccc2)NC(=O)[C@H](CC(=O)O)NC(=O)CNC1=O [technetium-99m labelled]  tissue uptake (γ-counting; female athymic nude mice, U-87 MG xenograft, brain; intravenous, 2 h): 0.13 ± 0.02 %ID/g
CCN(CC)Cc1cc(Nc2ccnc3cc(Cl)ccc23)ccc1O  EC90 (Dengue virus 2; viral replication, plaque; BHK-21; 72 h): 2.69 ± 0.47 µM
PTAAGV  viral yield (rhesus rotavirus; viral replication; peptide, mouse cholangiocytes; concentration not given, 18 h, 37 °C): no effect
CCCCCCOc1c(OC)cc(NC(C)CCCNC(=O)C(C)N)c2nc(C(C)(C)C)ccc12 (stereo not shown)  MBC (Staphylococcus aureus; MRSA ATCC 33591): > 20 µg/mL
CC1CCN(CCCNC(=O)c2ccc3c(=O)n(CCc4ccccc4)c(=O)[nH]c3c2)CC1  maximal response (Hepatitis C virus; HCV infection, Gaussia luciferase reporter; Huh7.5.1 reporter cells; baseline: 10 µM cyclosporin A, DMSO, negative means inhibition): -74.8%
C=C1[C@@H](C)[C@H]2[C@H](Cc3ccccc3)NC(=O)[C@]23[C@H](OC(C)=O)/C=C/[C@](C)(O)C[C@@H](C)C/C=C/[C@H]3[C@@H]1O  pycnidia number (Phyllosticta citricarpa; Citrus sinensis leaf disc; 10 µL of 10 mg/mL, 21 days, methanol solution): 43 ± 7
HVFLRF-NH2 (C-amide)  inhibition (Drosophila melanogaster; heart rate; adult heart; 40 nL injected, 1 µM, 10 min; baseline: DMS): 86%
CCCCCCCOc1c(OC)cc(NC(C)CCCNC(=O)C(N)C(C)CC)c2nc(C(C)(C)C)ccc12 (stereo not shown)  MBC (Staphylococcus aureus; microbial killing; ATCC33591 MRSA; drug-resistant strain): 5 µg/mL (≈ 9.21 µM)
CNC(C)Cc1ccc2c(c1)OCO2 (racemic)  mood rating (visual analog scale, item: Restless; human; oral, 1.5 mg/kg, mean over session, unit not given; baseline: pre-dose baseline): 27.3
CN[C@@](C)(C[18F])C(=O)O  tracer uptake (SK-OV-3 tumour model; host not given, heart; 1 h, tumour-bearing): 2.6 %ID/g
CCCCCOc1c(OC)cc(NC(C)CCCNC(=O)C(N)Cc2cc3ccccc3[nH]2)c2nc(C(C)(C)C)ccc12 (stereo not shown)  MBC (Staphylococcus aureus; microbial killing; ATCC33591 MRSA; drug-resistant strain): 10 µg/mL (≈ 17 µM)
CC(=NNC(=O)CN1c2c(-c3ccccc3)n[nH]c2-c2ccccc2S1(=O)=O)c1sccc1Br  EC90 (HIV-1; viral replication; PBMC): > 100 µM
TAVDHVFLRF-NH2 (C-amide)  inhibition (Drosophila melanogaster; heart rate; wandering third instar larval heart; 40 nL injected, 1 µM, 10 min; baseline: DMS): 50%
CCCCOc1c(OC)cc(NC(C)CCCN)c2nc(C(C)(C)C)cc(C)c12 (stereo not shown)  MBC (Staphylococcus aureus; microbial killing; ATCC33591 MRSA; drug-resistant strain): 5 µg/mL (≈ 12.5 µM)
CC(N)C12CC3CC(CC(C3)C1)C2 (stereo not shown)  EC50 (Influenza A virus H3N2; viral replication, MTS; MDCK): 0.6 µM

Repeated from above:
CCCCCn1c(=O)[nH]c2cc(C(=O)NCCCN3CCCCC3CC)ccc2c1=O (stereo not shown)  maximal response (Hepatitis C virus; HCV infection, Gaussia luciferase reporter; Huh7.5.1 reporter cells; baseline: 10 µM cyclosporin A, DMSO, negative means inhibition): -55.6%
N=C(N)NCCC[C@@H]1NC(=O)[C@H](CCCCNC(=O)[C@H](CC(=O)O)NC(=O)[C@H](CC(=O)O)NC(=O)[C@H](CC(=O)O)NC(=O)CC[C@H](NC(=O)CCOCCOCCOCCOCCNC(=O)c2ccc(NN)nc2)C(=O)N[C@@H](CC(=O)O)C(=O)N[C@@H](CC(=O)O)C(=O)N[C@@H](CC(=O)O)C(=O)NCCCC[C@@H]2NC(=O)[C@@H](Cc3ccccc3)NC(=O)[C@H](CC(=O)O)NC(=O)CNC(=O)[C@H](CCCNC(=N)N)NC2=O)NC(=O)[C@@H](Cc2ccccc2)NC(=O)[C@H](CC(=O)O)NC(=O)CNC1=O [technetium-99m labelled]  tissue uptake (γ-counting; female athymic nude mice, U-87 MG xenograft, eyes; intravenous, 0.5 h): 0.89 ± 0.25 %ID/g
C[C@H]1CNCCc2ccc(Cl)cc21  Tmax (male Sprague-Dawley rat, plasma; subcutaneous, 3 mg/kg, single dose): 0.42 h
YIRF-OH  change in mobility (Schistosoma mansoni; EthoVision motion tracking; peptide, adult worm pairs; 10 µM, 5 min, 37 °C; baseline: pretreatment mobility): 1.5 ± 2.05%
c1ccc(CCN2CCCCC2)cc1  Ki (DRD2 (Homo sapiens, UniProt P14416); binding; CHOp; added: [3H]YM-09151-2 0.21 nM): > 10 µM
O[C@H]1CCCN[C@@H]1CCCn1cnc2c(Cl)c(Cl)ccc21  Tmax at steady state (healthy human volunteers, plasma; oral, 50 mg twice daily, day 14, median): 3 h
